Published values collected from several papers.
Numbered parts are unrelated; each lists some results of a single study. Substitutions count along the parent as printed.

Study 1 — method: universal PBM; form: double-stranded DNA, one strand shown; sample: in vitro; tested at: not given; reading: higher = stronger binding; quantity: E-score
Target: Sal-like protein 4, full length isoform B (SALL4, Homo sapiens, UniProt Q9UJQ4-2, residues 1-616)
Notes: 8-mer, flanks averaged, mean of replicates
AAAACAGT: 0.19
AGCAGATC: 0.0543
AGTTGAGG: -0.0652
CACTGCGG: -0.208
CTCTAGAC: -0.0136
CGCGACGC: -0.312
CCGTCCCC: -0.299
ACCCAAGT: 0.026
AGAAACTC: -0.0673
CATCATTA: 0.282
GAAAGGGC: -0.0755
AGATCTGG: -0.191
AATAGTCG: 0.0114
CAGATCCC: -0.118
GCTTAAGA: -0.101
CTCTGGCC: -0.155

Study 2 — method: protein binding microarray; form: double-stranded DNA, one strand shown; sample: in vitro; tested at: not given; reference: not given; reading: higher = stronger binding; quantity: E-score
Target: Histone acetyltransferase KAT6A, both winged helices, GST fusion (KAT6A, Homo sapiens, UniProt Q92794, residues 1-181)
Notes: 8-mer, flanks averaged, mean of 2 arrays, mostly near background
Construct (chain): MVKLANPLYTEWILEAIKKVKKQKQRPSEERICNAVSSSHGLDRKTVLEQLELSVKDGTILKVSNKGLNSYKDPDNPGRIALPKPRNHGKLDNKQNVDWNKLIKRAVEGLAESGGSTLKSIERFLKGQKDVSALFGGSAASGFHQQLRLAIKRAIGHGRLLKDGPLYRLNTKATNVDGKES
GTCACGTA: 0.0059
ATCATCAA: -0.0315
ACACTATA: -0.0541
CAAAGGTC: -0.101
ATCCGAAC: 0.0257
GTAGCATA: -0.0316
CACCAATG: -0.071
CGGTTTTA: 0.153
CACGAGTC: -0.0601
CTAGCTCC: -0.0103
CGCCTTGA: 0.106
CTAAAACC: 0.0115
GTGTAATA: -0.074
AAAGCAAT: -0.0759
AAAACGTC: -0.0246
AGATAAAA: -0.0345
GACCGATC: 0.0879
TTTAAAAA: -0.0309
GTTCTGTA: -0.1
GCCGGGAC: 0.208
CACGTAGA: -0.257
CATCTGGG: -0.0871
CCTCCACC: -0.173
AGAATAGA: -0.209
AACTTACG: 0.123

Study 3 — method: DHFR PCA, deep sequencing; sample: yeast; together with: (+)-ABA 4.8 µM; reference: wild-type fitted maximum; reading: higher = stronger binding; quantity: relative binding score
Target: ABI1, truncated, D143A, DHFR fusion (Arabidopsis thaliana)
Notes: methotrexate growth selection, single substitutions
Starting sequence: PYL1, truncated, DHFR fusion (Arabidopsis thaliana); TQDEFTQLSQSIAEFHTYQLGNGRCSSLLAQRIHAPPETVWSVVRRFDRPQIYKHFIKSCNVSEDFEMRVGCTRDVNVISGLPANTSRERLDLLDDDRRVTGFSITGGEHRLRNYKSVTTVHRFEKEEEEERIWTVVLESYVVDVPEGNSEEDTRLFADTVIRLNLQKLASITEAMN
I52F: 60.3%
L91W: 3.87%
L8A: 31.2%
V142F: 9.61%
A175F: 51.9%
E131M: 74.2%
S9R: 76.9%
R46M: 46.9%
R155Q: 53.9%
R24P: -1.31%
S27C: 5.75%
V43W: 1.42%
T73F: 79.1%
S140D: -8.2%
C72Y: 18%
N61A: 77%
V44N: -4.54%
G148F: 12.4%
K168I: 19%
K116I: 0.992%
D92S: 10%
K54D: -1.34%
Y115V: 2.85%
R113P: 41.5%

Study 4 — method: EMSA with sequencing; form: double-stranded DNA, one strand shown; sample: in vitro; tested at: 10 and 20 nM; reference: negative control set to 0; reading: higher = stronger binding; quantity: normalised bound fraction
Target: Hepatocyte nuclear factor 3-alpha (Foxa1, Mus musculus, UniProt P35582, residues 1-468, full length assumed)
Notes: whole designed probe, mean of two concentrations, ends assumed
Shared flanks, not repeated: GTGAGCGGTGCCCATTGATGGGGAAC … TTTCACTGGGATCGTGGGGAC
Target sequence (chain): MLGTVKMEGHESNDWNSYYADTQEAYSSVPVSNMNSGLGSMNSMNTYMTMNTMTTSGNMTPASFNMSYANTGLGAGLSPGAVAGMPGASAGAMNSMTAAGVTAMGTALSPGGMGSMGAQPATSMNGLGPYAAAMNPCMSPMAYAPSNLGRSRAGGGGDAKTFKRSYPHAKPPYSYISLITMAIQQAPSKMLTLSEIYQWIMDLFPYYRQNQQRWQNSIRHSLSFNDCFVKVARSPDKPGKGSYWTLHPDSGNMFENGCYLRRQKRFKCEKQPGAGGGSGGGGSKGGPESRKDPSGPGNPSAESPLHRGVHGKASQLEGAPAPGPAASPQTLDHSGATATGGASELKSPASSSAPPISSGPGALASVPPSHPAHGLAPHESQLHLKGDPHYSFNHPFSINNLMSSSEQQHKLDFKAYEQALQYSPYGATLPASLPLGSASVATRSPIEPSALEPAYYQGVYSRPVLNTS
TGCCCACTGCCTATGGGAGTTGACACTTTTGAGTTTAACATTCATTCCAGCTCTTCCGTCATCTCCAGACCCTACTATTCCAAACTCATCTCTTATTGACTTTCTGACTCATTAAATGTTGACCTTAGCAATCCGCTGTCCTTTACATGGTCCAGAATACCTCCTTCTTCATCATGTTACGCCAGTCTTTCAG: 0.244 ratio
AGTTTATAGATAGATGGATAAATATTTTTTACATGGAGAAGGCGTAATAGGAAATATCATACTGATTATGAAGTACTTTCAAAACATTGACAATGTAATCTAATATTAATTAATAGGAGACAAGCATATTAAATGAATCCAGTATAATTGGTGTTACACTGGTGCAAAGTATTGAATGTTTGCTTCCCCACCC: 0.0553 ratio
GCCCCTTCCTCCCCAGCTTTATTAGGGTGAGTGTTGGAGCCCACCCAAGGGTCCATGCTGTCATTGGTACTTTGCACCTACATGGCCATTCTGTTGTTTACTTTGGTTTGAGCCGTGGAAACAGAGACTGAAGAGCAGCAGGCACCAGCCTCTGTGCTGTCCCTACTCAGGCCCCCAGTTGGGGGTGAGGAGC: 0.442 ratio
AATATTTCAAACACTACGTACCCCAACTGACATTTGAGTAGCAGTTAAGTTCTTGGAACGCTGCCATTTTGATCTGTTACGTAACAGCTCATTGTAATCTGGATGAAATAGGGCAGTTAAAAGACTAATGGTCAGTGAAATCTACAACAGGAATGGAAAGAATTTTCCCCTTAAAAATTTGGAAATCCTTATT: -0.0194 ratio
CAAGGCTGCTCACCCACTTCTTTAACCATTCTTCAAAAAAGTGAGCTGTTGTTATTGAACTTTTTATTATTACTTAATTACAAGAAAAAACAAAGTAAACAACCAAAAAAATTATAGTGTTGAGAAAATGCCAAGGCTGTTCACCCACTTCTTTAACCATTCTTCAAATTTACCATATATATATTTTTTTGAC: 0.356 ratio

Study 5 — target: CCNB3, cyclin fold, Cln2 fusion (human); method: yeast growth competition, sequencing; sample: yeast; notes: weak parent motif; reference: not given; reading: higher = stronger binding; quantity: normalised enrichment score
Starting sequence: E2F1 docking peptide (human); PPVKRRLDLETDH; partner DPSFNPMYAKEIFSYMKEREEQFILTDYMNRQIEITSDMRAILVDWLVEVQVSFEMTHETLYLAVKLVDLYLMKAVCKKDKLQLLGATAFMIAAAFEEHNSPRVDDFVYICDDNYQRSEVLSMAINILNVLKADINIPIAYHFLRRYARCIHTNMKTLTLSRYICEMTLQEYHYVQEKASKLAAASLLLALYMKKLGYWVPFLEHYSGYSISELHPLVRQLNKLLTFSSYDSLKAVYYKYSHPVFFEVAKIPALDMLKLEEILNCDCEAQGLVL
PPVKIRLDLETDH [R5I]: -0.116
PPVKRRLDLETDI [H13I]: 0.696
RPVKRRLDLETDH [P1R]: 0.22
PPVKARADLETDH [R5A L7A]: -0.339
PPVSRRLDLETDH [K4S]: 0.553
PPVKRRLWLETDH [D8W]: 0.267
PPVKRRLDLFTDH [E10F]: 0.0413
PPVKRRLDLETMH [D12M]: 0.449
PPVPRRLDLETDH [K4P]: 0.14
PPVKRQLDLETDH [R6Q]: -0.202
KPVKRRLDLETDH [P1K]: 0.569
PPLKRRLDLETDH [V3L]: -0.822
PPVKRRLDLETDG [H13G]: 0.957
PKVKRRLDLETDH [P2K]: 0.213
PPVKRRLFLETDH [D8F]: 1.49
PPVKRRLDLETWH [D12W]: -0.00883
PPVKRRLDLETDC [H13C]: 0.337
PPVKRRLDLETFH [D12F]: 0.846
LPVKRRLDLETDH [P1L]: 1.08
PPVKRRKDLETDH [L7K]: -0.0371
PPVKRRLDLDTDH [E10D]: 1.03
PPVKCRLDLETDH [R5C]: 0.249
PPVKRRFDLETDH [L7F]: -0.0776
PPVKRRLDLYTDH [E10Y]: 0.219
PPVKFRLDLETDH [R5F]: 0.281

A few entries again (study 5):
PPVKARADLETDH [R5A L7A]: -0.339
PPVKRRLDLETDC [H13C]: 0.337
PPVKRRLDLETFH [D12F]: 0.846
PPVKRRKDLETDH [L7K]: -0.0371
PPVKRRLFLETDH [D8F]: 1.49
PPVSRRLDLETDH [K4S]: 0.553
PPVKRRLDLETDI [H13I]: 0.696
